Assay results collected from several papers.
Parts stem from different laboratories: compare values within a part only. Positions count from the first letter of the parent shown.

Study 1 — technique: protein binding microarray; molecule type: double-stranded DNA, one strand shown; medium: in vitro; tested at: not given; reference: not given; reading: higher = stronger binding; endpoint: E-score
Target: Histone acetyltransferase KAT6A, both winged helices, GST fusion (KAT6A, Homo sapiens, UniProt Q92794, residues 1-181)
Setting: 8-mer, flanks averaged, mean of 2 arrays, mostly near background
Construct (chain): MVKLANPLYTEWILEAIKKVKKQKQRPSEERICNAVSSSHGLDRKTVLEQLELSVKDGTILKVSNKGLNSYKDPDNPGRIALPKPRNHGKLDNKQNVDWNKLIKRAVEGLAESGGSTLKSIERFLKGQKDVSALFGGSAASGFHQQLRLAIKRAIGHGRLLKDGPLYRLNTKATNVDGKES
ATCAGGCG: 0.0662
ACTCATTA: -0.0036
TGGGGAAA: -0.213
GTCCCGCA: 0.275
CAGGCCTG: -0.218
ATTTTAGC: 0.0337
TGATAGAA: -0.205
ATTATATG: -0.166
ATCCCGTA: 0.187
AAGCACTT: -0.116
CAGCTTCC: 0.0252
AGGGGGCC: -0.0984
AAAATAGG: -0.157
CGATTCTC: 0.0282
CTACGCAA: -0.0209
ATCGTGGG: -0.118
AAGAATGG: -0.0898
AGGGGTGG: -0.21
CTTGGCAA: -0.144
ACCAGGCT: -0.138
GGCCTAAC: -0.0976
GTCACGGA: 0.289
AACTCTTA: -0.0744
ACGCGGTC: 0.295

Study 2 — technique: universal PBM; molecule type: double-stranded DNA, one strand shown; medium: in vitro; tested at: 600 nM; reading: higher = stronger binding; endpoint: E-score
Target: Sal-like protein 4, full length isoform A (SALL4, Homo sapiens, UniProt Q9UJQ4, residues 1-1053)
Sequence of UniProt Q9UJQ4 (whole entry, looked up): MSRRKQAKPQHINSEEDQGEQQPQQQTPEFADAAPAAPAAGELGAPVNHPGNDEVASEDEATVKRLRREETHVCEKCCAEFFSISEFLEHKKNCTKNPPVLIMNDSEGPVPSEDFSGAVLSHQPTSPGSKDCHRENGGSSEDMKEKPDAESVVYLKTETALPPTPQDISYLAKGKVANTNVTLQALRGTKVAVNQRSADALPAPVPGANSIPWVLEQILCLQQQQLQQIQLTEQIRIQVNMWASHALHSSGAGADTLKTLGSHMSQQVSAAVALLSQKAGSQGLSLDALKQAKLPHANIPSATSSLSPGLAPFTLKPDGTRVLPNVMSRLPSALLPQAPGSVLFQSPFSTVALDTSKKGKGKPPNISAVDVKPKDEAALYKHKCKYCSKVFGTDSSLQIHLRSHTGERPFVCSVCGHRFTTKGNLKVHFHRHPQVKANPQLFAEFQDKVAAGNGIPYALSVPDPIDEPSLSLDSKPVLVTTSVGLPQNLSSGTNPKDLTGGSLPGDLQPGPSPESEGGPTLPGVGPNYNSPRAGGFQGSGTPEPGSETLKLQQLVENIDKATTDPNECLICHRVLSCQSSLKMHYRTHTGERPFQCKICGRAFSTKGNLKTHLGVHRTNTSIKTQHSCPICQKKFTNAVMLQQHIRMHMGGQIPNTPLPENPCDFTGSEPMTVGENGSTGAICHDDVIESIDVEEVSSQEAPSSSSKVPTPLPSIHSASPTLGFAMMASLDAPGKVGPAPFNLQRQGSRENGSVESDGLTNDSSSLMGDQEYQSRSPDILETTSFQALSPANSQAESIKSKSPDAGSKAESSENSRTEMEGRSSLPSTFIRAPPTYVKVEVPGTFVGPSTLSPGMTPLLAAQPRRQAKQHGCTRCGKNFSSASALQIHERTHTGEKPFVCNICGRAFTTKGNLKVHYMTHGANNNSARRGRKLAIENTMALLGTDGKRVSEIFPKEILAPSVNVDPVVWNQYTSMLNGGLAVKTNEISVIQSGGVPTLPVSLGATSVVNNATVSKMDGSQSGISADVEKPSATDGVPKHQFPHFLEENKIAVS
Setting: 8-mer, flanks averaged, mean of replicates
GTAGACAA: 0.147
GCGCCAGC: -0.272
CCTAAGTA: 0.123
CAATGCTG: -0.0334
ACTAGCAA: 0.242
GAGGTCGA: -0.108
CGGCAGAG: -0.306
CAGGCCTG: -0.28
ACTGTGGG: -0.267
GCTACTCC: -0.133
CGCACCGC: -0.31
GCGCAGAC: -0.247
AGGACTCC: -0.265
AACACGGT: -0.108
ACCAGGCG: -0.36
CTTGCTTC: 0.0229

Study 3 — technique: DHFR PCA, deep sequencing; medium: yeast; together with: (+)-ABA 0.0091 µM; reference: wild-type fitted maximum; reading: higher = stronger binding; endpoint: relative binding score
Target: ABI1, truncated, D143A, DHFR fusion (Arabidopsis thaliana)
Setting: methotrexate growth selection, single substitutions
Parent: PYL1, truncated, DHFR fusion (Arabidopsis thaliana); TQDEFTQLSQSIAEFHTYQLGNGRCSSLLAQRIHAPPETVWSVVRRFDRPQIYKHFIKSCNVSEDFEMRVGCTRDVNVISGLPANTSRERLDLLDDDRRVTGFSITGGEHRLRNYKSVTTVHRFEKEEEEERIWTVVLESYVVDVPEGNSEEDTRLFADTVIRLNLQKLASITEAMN; partner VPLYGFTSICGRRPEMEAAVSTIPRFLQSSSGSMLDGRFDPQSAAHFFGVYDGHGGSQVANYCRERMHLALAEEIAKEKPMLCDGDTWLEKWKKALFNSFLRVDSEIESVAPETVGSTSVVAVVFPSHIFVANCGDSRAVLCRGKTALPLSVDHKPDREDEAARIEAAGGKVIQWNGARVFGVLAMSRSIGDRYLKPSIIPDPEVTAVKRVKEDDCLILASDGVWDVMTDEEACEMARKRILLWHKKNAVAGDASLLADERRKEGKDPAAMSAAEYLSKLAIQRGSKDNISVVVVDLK
A170V: -0.646%
L112W: 6.22%
I57W: -2.75%
C25R: -1.63%
A158C: 74.7%
R163T: 15.6%
F47V: -4.68%
G107T: 1.63%
G148Q: -6.6%
F56E: 4.18%
V78L: 74.3%
R32N: 0.763%
Q167A: 23.7%
P50F: -11.7%
T6V: 34.8%

Study 4 — technique: RNA Bind-n-Seq; molecule type: RNA; medium: in vitro; tested at: 365 nM; reference: no-protein control; reading: higher = stronger binding; endpoint: RBNS enrichment (R)
Target: RNA binding protein fox-1 homolog 2, RRM domain, GST-SBP tag (RBFOX2, Homo sapiens, UniProt O43251-10, residues 100-194)
Setting: natural RNA segment, single round, ends assumed
Shared flanks, not repeated: GGGAGUUCUACAGUCCGACGAUC … UGGAAUUCUCGGGUGCCAA
Residues (chain): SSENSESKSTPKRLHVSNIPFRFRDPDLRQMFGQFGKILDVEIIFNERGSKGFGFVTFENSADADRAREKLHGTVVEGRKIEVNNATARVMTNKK
AAAACCAAUUGGAACAACUUCGUCCGGUCACUGUGUUGUGCCCCCCCAUGGUUCAAGUGACAGUGGGUGACCUUGUCUGCCAAGAUCUUUCUUUUGAAUGUUUUGAACCC: 0.309
ACUUGGUCUUCUGUGUUCUAGAGAACAGCACUGCUCUGACAAGUGAAUUCUUGAUAAAUGGCUAAUGCUUUUCUCUCACACUGCUAAUCUUUGGAUGGAAACCAUUCUUU: 0.261
GUGCCCAAGAUUAUCUGUAAAGUAAUAAAAUCUGCCGAGGAGAAUGUGAAAAGAAUUUGUUCAAGGCUUAACAUUUUUGAUACAGACUAAUAAAAUUUAAGAAACAAAGG: 0.796
UGUCACUCCUUUGGUCAUUAAAUGCACUGGGCUUGCCCGCACUUUGGCCUUCCUAGAACACUGCUUCAUAACCUCUCUGUCUGACUUCUGCAUCUCCUUCCAGGUCAGCU: 1.42
GUAUAACUUUCUUUUUAAACUGUAAGUAAAGGGUCUUGCAGCUUUGUGCUUGUGUUAUCUUAGCAUUUAUCUUCAAACCAGCAUCUCACUAUUUAUUGACAGUGGUGUGU: 0.499
CUCGAGUAAUCAGAAAUCACAUCCCUGGAGAACCCACCACCCACUAUGGACCUCAGGGCACUCUCCGUGCUGCCCACAAAGACUUGGGUGGAAAAGACUCAAAGGCACUU: 0.158
AUGAGUGUGUGUUCUUCCCCAAGGUCCCCCCACAGCUCCAGGACACCGCUGUCCUGGCAUUUGUGGCCACUCACUUUGUAGGAAACUCAUCUCCUUCCUGAGGAGCCGGG: 0.206
UUUCUACUGGAGAGACCCUCACUUUGGGGUGAUGGUCCUGACCUAGACCCAGAGUCUGGAAGCUUCACACUGAGUUGGUGACUCCAGCUUCUAUCUCCUGGAGGUCCCAA: 0.287
UCCAGCUUGAAGGAUUGCAUCCUGCAGGGAAUGAGCACACCUGCCAAGGACACGUGCGCCUGCCUUCCCGCUCCCUCUCUCUCAGAGAUUGCCCUUUCUUCCCGAGGGCU: 1.24
CUUGUGGGAAGGCCAUCUCCUCCUGUCUGGUGGUACCUCCACUCUGGGCAGGGAGGGCCUGUCUGUGACUCGCUCUGGACCCCACUUCCCGCUCUGGCCAAGGGCUGUCU: 0.254
AGCCCAUGGCCAAGAAGCCUAACAGUAGGCUCCAUACCAGGCCUCAGCCUGAUACAGCAUUACUGUUGUCACCAGUUGACUGGAAUUGUAACCUUUUACUUGGGAAUGUG: 0.288
AAAGAAAGUGGCUGGAGGUGUGUUUGGUGUGAGAGGUGAGCAAUAAAGUACCUGCACAUUCUCUCCUGCUCUGGGAGUUUUCUUUUAGCUAUUUUCAUACCAGAUUGUGC: 0.562

Study 5 — target: CCND3, cyclin fold, Cln2 fusion (human); technique: yeast growth competition, sequencing; medium: yeast; setting: weak parent motif; reference: not given; reading: higher = stronger binding; endpoint: normalised enrichment score
Parent: REV3L docking peptide (human); PPVIIKYIIINRF
P1A: 0.0289
I8A: 0.159
I5A: -0.336
V3A: -0.0257
K6A: 0.219
I9A: 0.349

Study 6 — technique: aptamer microarray, sandwich; molecule type: DNA with 2'F-ANA; medium: in vitro; tested at: 200 nM; together with: Cy3 exosite-II aptamer, 400 nM; reading: higher = stronger binding; endpoint: mean fluorescence intensity; sequence: GGTTGGTGTGGTTGG
Target: Prothrombin, mature alpha-thrombin (F2, Homo sapiens, UniProt P00734)
Setting: whole 15-mer aptamer, many near background
2'F-ANA at 3 5 6 8 9 10 11 12 13 14: 53.3 a.u.
2'F-ANA at 3 5 8 9 11: 150 a.u.
2'F-ANA at 1 3 4 5 7 8 9 10 11 12 13 14 15: 50.5 a.u.
2'F-ANA at 1 2 3 5 6 7 11 12 15: 82.7 a.u.
2'F-ANA at 2 4 5 8 11: 60.9 a.u.
2'F-ANA at 2 4 5 8 11 13: 51.7 a.u.
2'F-ANA at 1 4 5 6 8 9 11 12 14 15: 82.9 a.u.
2'F-ANA at 4 5 7 8 13 14: 60.4 a.u.
2'F-ANA at 4 5 9 11 13 14: 47 a.u.
2'F-ANA at 2 4 5 6 7 8 10 14 15: 50 a.u.
2'F-ANA at 2 3 7 8 9 12 13 15: 1040 a.u.
2'F-ANA at 2 10 11 12 13 14: 92.4 a.u.
2'F-ANA at 4 5 6 7 9 10 11 13: 52.4 a.u.
2'F-ANA at 2 6 9 11 14: 109 a.u.
2'F-ANA at 1 2 4 7 10 11 12 15: 59.6 a.u.
2'F-ANA at 1 2 4 5 8 12 14 15: 62.4 a.u.
2'F-ANA at 1 2 6 8 9 11: 124 a.u.
2'F-ANA at 1 3 6 7 9 10 14: 101 a.u.
2'F-ANA at 4 7 8 9 10 14 15: 60.7 a.u.
2'F-ANA at 1 4 5 7 8 9 11 12 14 15: 46.7 a.u.
2'F-ANA at 4 5 6 7 8 10 15: 97.5 a.u.
2'F-ANA at 2 3 4 7 9 10 12 13: 268 a.u.
